# Experimental data collected from several papers.
# Values joined by “and” are separate records of one study, mostly repeats; a detail may differ. ± gives the spread as reported.
Substance,assay,test system,setting,scale,quantity,result
CCCSc1ccc2nc(NC(=O)OC)[nH]c2c1,shake-flask,soybean oil,37 °C,,thermodynamic solubility,0.17 ± 0.01 mg/g
acyl ghrelin (human),,"Ghsr knockout mice, midbrain","intravenous, dose not given, 10 min, vascular space corrected",,tissue/serum ratio,5.46 µL/g
COc1cc(F)c(F)c(Nc2ccc(I)cc2F)c1NS(=O)(=O)C1(C[C@H](O)CO)CC1,,"human patients, plasma","oral, 50 mg twice daily, cycle 1 day 14",,AUC(0-8 h),4910 ng·h/mL
O=C(c1cc(Cc2n[nH]c(=O)c3ccccc23)ccc1F)N1CCN(C(=O)C2CC2)CC1,,"human patients, plasma","oral, 100 mg twice daily, day 1, alone",,AUC(0-10 h),6800 ± 2700 ng·h/mL
N[C@@H](CC(=O)N1CCn2c(nnc2C(F)(F)F)C1)Cc1cc(F)c(F)cc1F,,"healthy Korean subjects, plasma","oral, 100 mg single dose, ABCB1 G2677T/A AT+GA",,AUC(0-2 h),464 ± 162 ng·h/mL
CC(C)NC[C@@H](C(=O)N1CCN(c2ncnc3c2[C@H](C)C[C@H]3O)CC1)c1ccc(Cl)cc1,,"human, Moderate hepatic function, plasma","oral, 100 mg single dose, NCI classification, geometric mean",,AUC(0-72 h),729 ng·h/mL
C[C@@H](N)c1cc(Cl)ccc1Cn1c(=S)[nH]c(=O)c2[nH]ccc21,,"healthy Japanese volunteers, plasma","oral, 5 mg once daily, day 10, geometric mean",,AUC(tau),0.573 µM·h
C[C@@H]1CN(c2c(F)c(N)c3c(=O)c(C(=O)O)cn(C4CC4)c3c2F)C[C@H](C)N1,,"male Hartley guinea pig, anaesthetized","intravenous infusion, 30 mg/kg, 10 min infusion",relative to: baseline,QTc change,20 ± 3.3%
CC(C)=CCc1c(O)cc2oc3c(CC=C(C)C)c(O)c(O)c(CC=C(C)C)c3c(=O)c2c1O,,"Balb/c nu/nu mice, HT-29 xenograft, tumour tissue","oral, 901 mg/kg xanthones in diet, 4 weeks after implantation",,free tumour concentration,140 ± 50 ng/g
CCOc1nc2cccc(C(=O)OC(C)OC(=O)OC3CCCCC3)c2n1Cc1ccc(-c2ccccc2-c2nnn[nH]2)cc1 (stereo not drawn),shake-flask,soybean oil,37 °C,,thermodynamic solubility,0.31 ± 0.01 mg/g
CCC[C@H](NC(=O)OCC1c2ccccc2-c2ccccc21)C(=O)O,reversed-phase HPLC,,,relative to: fluorinated over non-fluorinated analogue,retention time difference,13.8 min
CCN(c1cc(C#CCN2CCOCC2)cc(C(=O)NCc2c(C)cc(C)[nH]c2=O)c1C)[C@H]1CC[C@H](N(C)CCOC)CC1,,mouse liver microsomes,well-stirred model,,scaled intrinsic clearance,< 10 mL/min/kg
CC(=O)[C@H]1CC[C@H]2[C@@H]3CCC4=CC(=O)CC[C@]4(C)[C@H]3CC[C@]12C,shake-flask,Captex 355,37 °C,,thermodynamic solubility,36.9 ± 1.15 mg/g
CCn1c(C(=O)c2cc(C)cc(C#N)c2)c(C(C)C)c(=O)[nH]c1=O,,"healthy humans, plasma","oral, 75 mg once daily, 7 days",,Cmax at steady state,385 ± 126 ng/mL
CN[C@H](CC(C)C)C(=O)N[C@H]1C(=O)N[C@@H](CC(N)=O)C(=O)N[C@H]2C(=O)N[C@H]3C(=O)N[C@H](C(=O)N[C@H](C(=O)O)c4cc(O)cc(O)c4-c4cc3ccc4O)[C@H](O)c3ccc(c(Cl)c3)Oc3cc2cc(c3O[C@@H]2O[C@H](CO)[C@@H](O)[C@H](O)[C@H]2O[C@H]2C[C@](C)(N)[C@H](O)[C@H](C)O2)Oc2ccc(cc2Cl)[C@H]1O,,"pig, plasma","intravenous, 1000 mg, together with: MIC 4 µg/mL",,time to reach MIC,3 min
CCCC[C@H](NC(C)=O)C(=O)N[C@H]1CCC(=O)NC[C@@H](C(=O)N[C@@H](Cc2c[nH]c3ccccc23)C(N)=O)NC(=O)[C@H](CCCNC(=N)N)NC(=O)[C@@H](Cc2ccccc2)NC(=O)[C@H](Cc2c[nH]cn2)NC1=O,,"beagle dog, female, plasma","subcutaneous, 8.0 mg/kg daily, day 14",,Cmax,547 ng/mL
COC(=O)C[C@](O)(CCCC(C)(C)O)C(=O)O[C@@H]1C(OC)=C[C@]23CCCN2CCc2cc4c(cc2[C@H]13)OCO4,,"CD1 mice, esophagus","oral, 1 mg/kg, 2 h",,tissue concentration,not detected
Cc1cc(Nc2cc3ncccc3c(N[C@@H]3C[C@H]4CC[C@@H](C3)N4CCC#N)n2)n[nH]1,,"pregnant rat, maternal plasma","oral, 1000 mg/kg/day, gestation day 17",,Cmax,161 ng/mL
CNc1nc(Nc2ccc(-n3cnc(C)n3)c(OC)c2)nc2c1CC[C@H]2c1ccc(F)cc1,,"human, plasma","oral, 300 mg, single dose, fed, healthy volunteers",,AUC(0-inf),20400 ng·h/mL
CCOC(=O)C1=C(C)NC(C)=C(C(=O)OC)C1c1cccc(Cl)c1Cl (stereo not drawn),shake-flask,soybean oil,37 °C,,thermodynamic solubility,9.59 ± 0.67 mg/g
COc1cccc(N2CCN(C3=Nc4c(F)cccc4[C@H](CC(=O)O)N3c3cc(C(F)(F)F)ccc3OC)CC2)c1,,"healthy women, plasma","intravenous, 240 mg once daily, day 14",,AUC(tau) at steady state,33600 ± 6730 ng·h/mL
Cc1ccco1,metabolic activation to acetaldehyde,"male Sprague-Dawley rats, pooled liver microsomes","10 min, low concentrations",,Km,11 µM
O=C(CCCCCCC(=O)Nc1ccccc1)NO,,"human patients, serum","oral, 600 mg, cycle -1 day 2",,AUC(0-7 h),4.72 µM·h
RIPLEM,"substrate, gel electrophoresis","peptide, mouse, PyMT tumour, PyMT tumour tissue extract","5 µM, 16 h, 37 °C, 2% extract, 1 mM ZnCl2",,peptide cleavage,< 10%
O=c1ccn([C@@H]2O[C@H](CO)[C@@H](O)[C@H]2O)c(=O)[nH]1,,"male CD-1 mice, small intestine without content","intravenous, 1 mg/kg, 1 h",,share of tissue radioactivity,3.1%
CCCn1c(=O)n(C2CC2)c(=O)c2[nH]c(-c3ccc(N(CC)C(=O)c4cccnc4)nc3)nc21,,KKA diabetic mice,"oral, 20 mg/kg four times at 12 h intervals, 2 day",,body weight,no effect
O=C(O)C[C@H](O)C[C@H](O)/C=C/c1c(C2CC2)nc2ccccc2c1-c1ccc(F)cc1,,"male Sprague Dawley rat, control, plasma","oral, 2.5 mg/kg, geometric mean, together with: silymarin 500 mg/kg oral",,AUC(0-27 h),5.7 µM·h
NC(=O)CC[C@@H]1NC(=O)[C@H](Cc2ccccc2)NC(=O)[C@H](Cc2ccc(O)cc2)NC(=O)CCSSC[C@@H](C(=O)N2CCC[C@H]2C(=O)N[C@H](CCCN=C(N)N)C(=O)NCC(N)=O)NC(=O)[C@H](CC(N)=O)NC1=O,UPLC-MS/MS,human plasma,"3.05 pg/mL, 6 h, room temperature",,bench top stability,95.7%
O=c1c(-c2ccc(O)cc2)coc2cc(O)cc(O)c12,mass spectrometry,Caco-2,"40 µM, 6 h",,Papp A→B,11.9 ×10⁻⁶ cm/s
CC(C)(Oc1ccc(CCNC(=O)c2ccc(Cl)cc2)cc1)C(=O)O,shake-flask,soybean oil,37 °C,,thermodynamic solubility,≤ 0.2 mg/g
CS(=O)(=O)OC[C@H](O)[C@@H](O)COS(C)(=O)=O,,"Wistar rat, female, red blood cells","intraperitoneal, 500 mg/kg, 4 h",,concentration in red blood cells,90 µM and 70 µM
COc1ccc2c(c1)c(CC(=O)O)c(C)n2C(=O)c1ccc(Cl)cc1,shake-flask,PEG400,37 °C,,thermodynamic solubility,135 ± 11.3 mg/g
Cc1cc(-c2cc(OC(=O)c3ccccc3)ccc2Cl)cc2nnc(Nc3ccc(OCCN4CCCC4)cc3)nc12,,"Long Evans rat, sclera/choroid","topical, 1%, 24 h",,concentration,0.843 µM
C/C=C/C=C/C=C\CC/C=C/C(=O)NCC(C)(C)O,,"rat, small intestine site 4 contents","oral, dose not given, 2 h, no β-glucuronidase treatment",relative to: ingested amount,recovery,0.02%
Cn1cc(C[C@H](N)C(=O)O)c2ccccc21,,"domestic pig, inguinal region","sc, 1 g daily for five days",,skin temperature,39.1 ± 0.1 °C
CCCC[C@@H]1NC(=O)[C@@H](NC(=O)[C@H](CCC(=O)O)NC(=O)CNC(=O)CN2CCN(CC(=O)O)CCN(CC(=O)O)CCN(CC(=O)O)CC2)CCCCNC(=O)C[C@@H](C(N)=O)NC(=O)[C@H](C(C)C)NC(=O)[C@@H]2CCCN2C(=O)[C@H](CCCNC(=N)N)NC(=O)CNC(=O)[C@H](Cc2c[nH]c3ccccc23)NC(=O)[C@H](CCCNC(=N)N)NC(=O)[C@@H](Cc2ccccc2)NC(=O)[C@H](Cc2c[nH]cn2)NC(=O)[C@H](CCC(=O)O)NC1=O [indium-111 labelled],,"normal C57 mice, brain","intravenous, 0.037 MBq, 24 h",,tissue uptake,0.01 ± 0.01 %ID/g

# For quick reference, copied from above:
Substance,assay,test system,setting,scale,quantity,result
CC(C)=CCc1c(O)cc2oc3c(CC=C(C)C)c(O)c(O)c(CC=C(C)C)c3c(=O)c2c1O,,"Balb/c nu/nu mice, HT-29 xenograft, tumour tissue","oral, 901 mg/kg xanthones in diet, 4 weeks after implantation",,free tumour concentration,140 ± 50 ng/g
COc1cc(F)c(F)c(Nc2ccc(I)cc2F)c1NS(=O)(=O)C1(C[C@H](O)CO)CC1,,"human patients, plasma","oral, 50 mg twice daily, cycle 1 day 14",,AUC(0-8 h),4910 ng·h/mL
CNc1nc(Nc2ccc(-n3cnc(C)n3)c(OC)c2)nc2c1CC[C@H]2c1ccc(F)cc1,,"human, plasma","oral, 300 mg, single dose, fed, healthy volunteers",,AUC(0-inf),20400 ng·h/mL
CCn1c(C(=O)c2cc(C)cc(C#N)c2)c(C(C)C)c(=O)[nH]c1=O,,"healthy humans, plasma","oral, 75 mg once daily, 7 days",,Cmax at steady state,385 ± 126 ng/mL
CCN(c1cc(C#CCN2CCOCC2)cc(C(=O)NCc2c(C)cc(C)[nH]c2=O)c1C)[C@H]1CC[C@H](N(C)CCOC)CC1,,mouse liver microsomes,well-stirred model,,scaled intrinsic clearance,< 10 mL/min/kg
